Measurements of several laboratories.
Lines come from different studies, so protocols differ.
Cell line: NCI-H460

SMILES | test | test system | setting | how to read | measurement | result
CCCCN1CCN(c2ccc3[nH]c(-c4ccc5[nH]c(-c6ccc(OCC)cc6)nc5c4)nc3c2)CC1 | SRB |  | 10 µM, 48 h |  | growth percent | 75.9%
Cc1cc(=O)[nH]c(=O)n1Cc1cn(-c2c3ccccc3nc3ccccc23)nn1 | NCI60 single-dose screen |  | 10 µM |  | growth percentage | 99.3%
CCCN1CCN(c2ccc3[nH]c(-c4ccc5[nH]c(-c6ccc(C(F)(F)F)cc6)nc5c4)nc3c2)CC1 | SRB |  | 10 µM, 48 h |  | growth percent | -88.5%
CSc1nc(-c2ccc(Cl)cc2)c2c(NC(=O)c3ccccc3)nnc-2[nH]1 | SRB |  | 10 µM, NCI60 single-dose screen | relative to: untreated | cell growth | 115%
CN1CCN(c2ccc3[nH]c(-c4ccc5[nH]c(-c6ccc(C(F)(F)F)cc6)nc5c4)nc3c2)CC1 | SRB |  | 10 µM, 48 h |  | growth percent | 30.9%
Cc1nc(NC(=O)N2CCC[C@H]2C(N)=O)sc1-c1ccnc(C(C)(C)C(F)(F)F)c1 | cell growth, CellTiter-Glo |  | 120 h |  | Hill coefficient GR curve | 0.702
O=C(Nc1nnc2n3c(nc(-c4ccc(Cl)cc4)c1-2)SCC3=O)c1ccccc1 | SRB |  | 10 µM, NCI60 single-dose screen | relative to: untreated | cell growth | 99.3%
CCCCN1CCN(c2ccc3[nH]c(-c4ccc5[nH]c(-c6ccc(OCC)c(OCC)c6)nc5c4)nc3c2)CC1 | SRB |  | 10 µM, 48 h |  | growth percent | -84.3%
CCn1cc(-c2cc(Cn3ccoc3=N)cc3c2CCN([C@@H](C)c2cc(OC)ccn2)C3=O)c(C(F)(F)F)n1 | cell growth, inhibitor |  | 120 h |  | EC50 | > 30 µM
Cc1cc(=O)[nH]c(=O)n1Cc1cn(-c2cc3ccccc3oc2=O)nn1 | NCI60 single-dose screen |  | 10 µM |  | growth percentage | 98.3%
Cc1cc(C)n(-c2nc(-c3ccc(Cl)cc3)c3c(NC(=O)c4ccccc4)nnc-3[nH]2)n1 | SRB |  | 10 µM, NCI60 single-dose screen | relative to: untreated | cell growth | 83.2%
COCCOCCOCc1n(Cc2ccc3ccccc3n2)c2ccccc2[n+]1Cc1ccc2ccccc2c1.[Br-] | NCI60 five-dose screen |  |  |  | TGI | 1.56 µM
CC(=O)O[C@H]1C(=O)[C@@]2(C)[C@H]([C@H](OC(=O)c3ccccc3)[C@]3(O)C[C@H](OC(=O)[C@H](O)[C@@H](NC(=O)c4ccccc4)c4ccccc4)C(C)=C1C3(C)C)[C@]1(OC(C)=O)CO[C@@H]1C[C@@H]2O | sulforhodamine B | NSCLC cancer | NCI60 screen |  | TGI | 0.79 µM
O=c1ccn(Cc2cn(-c3cc4ccccc4oc3=O)nn2)c(=O)[nH]1 | NCI60 single-dose screen |  | 10 µM |  | growth percentage | 99.8%
CCCCCCCCCCCCCCCCCCOc1ccc(CC(=O)OCC[N+]2(C)CCCCC2)cc1 | SRB |  | 10 µM |  | growth inhibition | < 0%
Cc1cc(-c2ccccc2)n(-c2nc(-c3ccc(Cl)cc3)c3c(NC(=O)c4ccccc4)nnc-3[nH]2)n1 | SRB |  | 10 µM, NCI60 single-dose screen | relative to: untreated | cell growth | 98.3%
O=c1ccn(Cc2cn(-c3c4ccccc4nc4ccccc34)nn2)c(=O)[nH]1 | NCI60 single-dose screen |  | 10 µM |  | growth percentage | 96.5%
S=C([S][Au-][P+](CCCCCC[P+]([Au-][S]C(=S)n1cccn1)(c1ccccc1)c1ccccc1)(c1ccccc1)c1ccccc1)n1cccn1 | cell growth, NCI-60 screen |  | non-small cell lung cancer |  | log10 TGI | > -4
[Br-].c1ccc2cc(Cn3c[n+](Cc4ccc5ccccc5c4)c4ccccc43)ccc2c1 | NCI60 five-dose screen |  |  |  | TGI | 2.91 µM
CN(C)C(=N)N=C(N)N | flow cytometry, item: surface PD-L1 |  | 10000 µM, 24 h |  | PD-L1 positive cells | 7.97%
O=C(Nc1nnc2n3c(=S)[nH][nH]c3nc(-c3ccc(Cl)cc3)c1-2)c1ccccc1 | SRB |  | 10 µM, NCI60 single-dose screen | relative to: untreated | cell growth | 112%
CCCCN1CCN(c2ccc3nc(-c4ccc5nc(-c6cc(OC)ccc6OC)[nH]c5c4)[nH]c3c2)CC1 | SRB |  | 10 µM, 48 h |  | growth percent | 99.6%
Cc1cc(=O)[nH]n1-c1nc(-c2ccc(Cl)cc2)c2c(NC(=O)c3ccccc3)nnc-2[nH]1 | SRB |  | 10 µM, NCI60 single-dose screen | relative to: untreated | cell growth | 92%
CCOc1ccc(-c2nc3cc(-c4nc5cc(N6CCN(C)CC6)ccc5[nH]4)ccc3[nH]2)cc1OCC | SRB |  | 10 µM, 48 h |  | growth percent | 17.2%
O=C(/C=C/C=C/C=C/C1CCCCC1)NC1=C[C@@](O)(/C=C/C=C/C=C/C(=O)NC2=C(O)CCC2=O)[C@@H]2O[C@@H]2C1=O | cell growth, CellTiter-Glo |  | 78 h |  | GI50 | > 30 µM
